Measured values of several laboratories.
A part holds a random share of what one study measured. Changes are numbered by the printed parent chain.

Series 1
Target: PABPC1L2, full length, GST fusion (mouse, UniProt A0ABA7IW68)
Method: RNAcompete
Molecule type: RNA
Sample: in vitro
Tested at: 20 nM
Setting: 7-mer, probes averaged, single round
Reference: mean of 7-mers
Direction: higher = stronger binding
| Sequence | 7-mer Z-score |
| --- | --- |
| UAACAAA | 1.04 |
| AAUUAAG | 0.321 |
| GCCGUUA | -0.248 |
| AACACCU | 0.124 |
| UGGUGCG | -0.0156 |
| AGGACAG | 0.225 |
| CGGACAC | -0.0699 |
| CUAGUUC | -0.414 |
| AGAAAGU | 1.17 |
| AGUGCGC | -0.133 |
| CAAUCUC | -0.0917 |
| CAAUCCG | -0.22 |
| AACCGAC | 0.0243 |
| UAGCGUG | -0.2 |
| GGUUGCA | -0.0808 |
| CUGCACA | -0.121 |
| UCCUUGC | -0.316 |
| CCCUAAU | -0.258 |
| CCCACUA | -0.233 |
| GAAGAGA | 0.206 |
| UACUCUU | -0.478 |
| UCCCCGG | -0.479 |

Series 2
Target: ABI1, truncated, D143A, DHFR fusion (Arabidopsis thaliana)
Method: DHFR PCA, deep sequencing
Sample: yeast
Setting: methotrexate growth selection, single substitutions
Together with: (+)-ABA 200 µM
Reference: wild-type fitted maximum
Direction: higher = stronger binding
Parent: PYL1, truncated, DHFR fusion (Arabidopsis thaliana); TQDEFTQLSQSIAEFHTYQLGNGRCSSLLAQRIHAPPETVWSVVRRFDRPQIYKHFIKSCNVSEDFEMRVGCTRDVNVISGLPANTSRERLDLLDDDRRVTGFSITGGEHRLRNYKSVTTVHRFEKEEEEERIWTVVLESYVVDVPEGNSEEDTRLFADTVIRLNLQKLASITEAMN
| Change | relative binding score [%] |
| --- | --- |
| P37A | 89.3 |
| D153L | 2.31 |
| L169Q | 8.92 |
| A175K | 96.4 |
| E4L | 99.4 |
| E38M | 71.1 |
| D97V | 103 |
| K168A | 92.5 |
| E129F | 100 |
| R88G | 59.2 |
| E4N | 91.6 |
| R88K | 100 |
| P36R | 94.1 |

Series 3
Target: RNA binding protein fox-1 homolog 2, RRM domain, GST-SBP tag (RBFOX2, Homo sapiens, UniProt O43251-10, residues 100-194)
Method: RNA Bind-n-Seq
Molecule type: RNA
Sample: in vitro
Tested at: 365 nM
Setting: natural RNA segment, single round, ends assumed
Reference: no-protein control
Direction: higher = stronger binding
All sequences stand within: GGGAGUUCUACAGUCCGACGAUC … UGGAAUUCUCGGGUGCCAA
Construct (chain): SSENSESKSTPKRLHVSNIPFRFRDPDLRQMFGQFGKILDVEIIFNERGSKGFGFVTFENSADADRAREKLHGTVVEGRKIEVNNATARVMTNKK
| Sequence | RBNS enrichment (R) |
| --- | --- |
| UAGAUUUGUAUCCUUGAUGAAUCUGGGGUUUCCAUCAGACUGAACUUACACUGUAUAUUUUGCAAUAGUUACCUCAAGGCCUACUGACCAAAUUGUUGUGUUGAGAUGAU | 0.501 |
| UAAGGUUCCUGUGGACUUUGUGUACCAAGGUGUCCAGUGCCACCAACACUGACCUGGGGCCUUUACAAAUGGUUGCUCUCCUCCAUCUUCCCAGGGCUGCGGUCCUGGUG | 0.19 |
| UUCCCUUGGGCGCCAAGCAACCUGCCAGGUAGCCAGUCCCUCUGUUACAAGCCUUUGCAUCUGGAUAGGGAAAGGGGUGGAGACAUACAGUCUGCUUUGUGUUGAAACCC | 0.318 |
| AGCAGCAUGCAAUUCCUAGUGACUUGCUGCACAGUAUUGUAUCAUAAUUACAGGAAGUUUUUAUUUUUAAAACUGGAUCUGGGGUAUAUUCAUUUGCCCCAUCACCUCUG | 0.319 |
| GCACUGCAUUAAACCUGGCUGGUCUCUUGUCUUGACUUCCUAUAUCUUUGGCUCCUUCUGUCUCAGAAUGAUGGGAAGCCUGACGGGGACCUGAGGAUUGAGGUCCUUGC | 0.534 |
| AGAGACUUCUAGGAAUCUUUUUCUUCUCAUAGCGAAGUCAAAGCUCUCUCUGAAUGUACUGUGUGAUGAUGCAUCAUGCAUGAACCUUCGGUCAGGGAUAUCAUUGGUGA | 0.317 |
| UAAAGGCUGACAUCUGGGGUCUAGCCUAGCACCUGAAGAUACUUGUGAUGUCUAACUCUGCAUAGCCUUUUCUCUUCAUAUCUGCGGCCUAUCUUUUCCCCUUACAUAUG | 0.839 |
| AGUUUGUAAAUAAGGGUGUCUGUGCAGAUUUCCCCACAUUUAUUUGUAUAAAAAUUUCUCAUCUUUUCAGACUUUUUUGUAAACCGCCCCCGAGUUGUGAAAGCUGCGAC | 2.03 |
| AAAACAAAAGCUAAAAUAAAAGCAUCAGAUUUAGACUGGCGCUGUGCCCUCUACCACUAUAUGCCAAAAAUUGCUUCUCUAGUGCCAUUUUGAUAUUAUAUCUAGCUAUA | 0.456 |
| UGGGGUCAUUACAAGACCCCUUGGGGGUGCUGCUUUGCUGCCUUCAAGAAUAAAAGCCUCUAUGAUCCAGAGUUGCUAUGCACCAAAUUUUGAUGCCUUUUAAAUACCUU | 0.28 |
| CUUCCCUUCAGCAGCCUCCCAGACCUCCCCAUUCUUCCAGGAUGCUGUCUGCCAGGUCACCACUCUGAUACCCAGCGUUCUCUGGUUGCUCUCUGUUUCCAGUGAUUAAA | 0.372 |
| AGGGCCACCGCCACAGCCCGGCAGAGGGGCACACUCUGGAGACCUUGCUGGCAGUGCUAGCCAGGAAACAGAGUGACCAAGGGACAAGAAGGGACUUGCCUAAAGCCACC | 0.217 |

Series 4
Target: Sal-like protein 4, full length isoform A (SALL4, Homo sapiens, UniProt Q9UJQ4, residues 1-1053)
Chain of UniProt Q9UJQ4 (whole entry, looked up): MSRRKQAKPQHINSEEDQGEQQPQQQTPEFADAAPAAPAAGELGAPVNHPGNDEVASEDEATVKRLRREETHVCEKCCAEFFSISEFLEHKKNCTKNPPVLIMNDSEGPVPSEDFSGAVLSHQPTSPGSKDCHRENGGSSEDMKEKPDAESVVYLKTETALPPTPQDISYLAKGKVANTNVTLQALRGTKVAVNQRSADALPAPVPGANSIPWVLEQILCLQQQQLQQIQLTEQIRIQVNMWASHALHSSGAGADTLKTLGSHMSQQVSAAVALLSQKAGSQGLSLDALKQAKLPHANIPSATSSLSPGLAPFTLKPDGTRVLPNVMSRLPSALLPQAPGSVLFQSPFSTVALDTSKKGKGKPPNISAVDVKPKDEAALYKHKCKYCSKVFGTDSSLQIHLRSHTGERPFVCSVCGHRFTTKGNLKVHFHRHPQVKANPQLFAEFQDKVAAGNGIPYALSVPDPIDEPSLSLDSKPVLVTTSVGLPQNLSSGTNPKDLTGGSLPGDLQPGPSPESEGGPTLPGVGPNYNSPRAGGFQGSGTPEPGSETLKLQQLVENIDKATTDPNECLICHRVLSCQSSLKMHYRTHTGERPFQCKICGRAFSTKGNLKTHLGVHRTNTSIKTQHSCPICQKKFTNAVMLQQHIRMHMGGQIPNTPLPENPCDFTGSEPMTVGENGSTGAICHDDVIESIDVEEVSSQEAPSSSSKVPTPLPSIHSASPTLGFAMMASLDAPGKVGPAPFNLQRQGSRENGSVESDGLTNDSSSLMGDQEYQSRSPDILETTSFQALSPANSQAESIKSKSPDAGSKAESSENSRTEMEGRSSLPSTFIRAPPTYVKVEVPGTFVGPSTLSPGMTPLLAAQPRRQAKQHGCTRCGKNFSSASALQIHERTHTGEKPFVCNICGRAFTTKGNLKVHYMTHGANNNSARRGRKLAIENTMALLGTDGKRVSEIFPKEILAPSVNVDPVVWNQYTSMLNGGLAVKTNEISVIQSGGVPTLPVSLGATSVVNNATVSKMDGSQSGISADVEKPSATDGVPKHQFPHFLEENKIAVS
Method: universal PBM
Molecule type: double-stranded DNA, one strand shown
Sample: in vitro
Tested at: 600 nM
Setting: 8-mer, flanks averaged, mean of replicates
Direction: higher = stronger binding
| Sequence | E-score |
| --- | --- |
| CGTACGAC | -0.0785 |
| AGTTCGGA | -0.14 |
| CGAAATCG | 0.00475 |
| TCCATCGA | 0.0838 |
| AGGCACGA | -0.157 |
| ACTTCTGG | -0.218 |
| CTATCTGC | -0.186 |
| GAAGTCGA | 0.0236 |
| GGGAACCA | -0.25 |
| AGGTTGCC | -0.211 |
| AAACCAGA | 0.04 |
| CCCTGTAA | -0.0243 |
| AAAGTACA | 0.233 |
| CTACTTAA | 0.0977 |
| CACTCCGG | -0.169 |
| CCCACATC | -0.0182 |
| TGTGCTAA | 0.0526 |

Series 5
Target: Hepatocyte nuclear factor 3-alpha (Foxa1, Mus musculus, UniProt P35582, residues 1-468, full length assumed)
Chain of UniProt P35582 (whole entry, looked up): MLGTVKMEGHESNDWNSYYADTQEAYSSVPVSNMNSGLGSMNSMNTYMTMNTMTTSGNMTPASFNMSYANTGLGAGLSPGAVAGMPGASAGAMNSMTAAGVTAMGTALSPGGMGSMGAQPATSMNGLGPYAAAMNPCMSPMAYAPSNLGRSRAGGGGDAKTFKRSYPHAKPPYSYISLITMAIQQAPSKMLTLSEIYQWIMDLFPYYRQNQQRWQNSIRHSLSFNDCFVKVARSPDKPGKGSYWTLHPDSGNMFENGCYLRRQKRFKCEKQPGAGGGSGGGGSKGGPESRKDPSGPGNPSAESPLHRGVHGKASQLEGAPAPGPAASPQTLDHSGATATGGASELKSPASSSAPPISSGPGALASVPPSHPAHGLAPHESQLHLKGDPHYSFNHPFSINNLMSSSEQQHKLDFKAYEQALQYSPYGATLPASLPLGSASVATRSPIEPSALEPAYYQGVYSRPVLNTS
Method: EMSA with sequencing
Molecule type: double-stranded DNA, one strand shown
Sample: in vitro
Tested at: 10 and 20 nM
Setting: whole designed probe, mean of two concentrations, ends assumed
Reference: negative control set to 0
Direction: higher = stronger binding
All sequences stand within: GTGAGCGGTGCCCATTGATGGGGAAC … TTTCACTGGGATCGTGGGGAC
| Sequence | normalised bound fraction [ratio] |
| --- | --- |
| CATGTACAAACAAAATATGGGTTGTGTAATTTCAGTAATTCCATGTACAAGTTAAACACTCTGATTGCACAATATATTTGCATTTAAAATGTCGTAAACATGAATGCTAACAATCTTTTTTTTTTTTCCTGAGACGGAGTCTTGCTCTATCGCCCAGGCTGGAGTGCAGCGGCACAATCTCTGCTTACTGCCA | 0.306 |
| GTAAGGACCTCAATTTATTTTTTTCCCTAAGAGCTAATGAATTTTCCCAGTATCACCCACTGAGCCGTCCTCCCCTCTTTGTGATGCCACGTTTGTTTACCTTGTGCTGACTCATATGTTCTGCAACATTCAGCTATTTGTCAATTCTTATGCCAGTACTTCCACTGTTACCATCATCAATTTAAAGATTACT | 0.425 |
| TCTCCCCGTGTGGCATCAAGGCGGGCTCCCTATAGGAGCTGGTGTGGACGTCCGGGCGTGGGGTTAGGGCGGATGCGGGGATCGCGGGGCGGGTGTTGACATTGTGCTCTCACCAGGCGGATCGCCCCGACCCTCACTCCTGGCGTCTGAGTCTCTGGCGTAGCCCATGCTGAGTGGGCGGCTGGTCCTGGGT | 0.138 |
| TGAAGTTATAATAGATGTGAGGAGTTTCCTATTGCTGAAAAATTACTTTTTCTAGAGGTTAAGAAGAGCTTTTAGAGTCAGAAAGACTTGACTAGATGACTCTAAAGTCCTGGCTGGTGGTGGGTGCAGTGACTCACGCCCATAATCTCAACACTTTGGGAGGCCGAGGTGGGTGGATCACTTGAGGTCAGGA | -0.0822 |
| ATCTTCCCCCTCTTCCTTGCCCCACCAGCTCACCTACGGGGGTTATTTGCACAAAGGAAAATAAATAAAGCCGGCATTCGTTAACGCAGTTCTGGCGCAAACTGCTGTTTGCTCTGGATCTAACATGGTCCTTTGGCGAGGCGTGGCTCCGGGAGAGCAAAGCACCGTGTCAGGGCCATGATCCGGGCTCGCC | 0.384 |

Series 6
Target: CCND2, cyclin fold, Cln2 fusion (human)
Method: yeast growth competition, sequencing
Sample: yeast
Setting: weak parent motif
Reference: not given
Direction: higher = stronger binding
Parent: KIF20B docking peptide (human); KRAKRKLYTSEIS
| Change | normalised enrichment score |
| --- | --- |
| S10A | -0.197 |
| R5A | -0.544 |
| T9A | -0.0953 |
| K6A | 0.214 |
| L7A | 0.00273 |
| Y8A | -0.127 |

Series 7
Target: FOSB, bZIP domain (human)
Method: DHFR protein complementation
Sample: yeast
Setting: single substitutions, most at no-binding floor
Reference: wild-type JUN-FOS pair
Direction: higher = stronger binding
Parent: JUN, bZIP domain (human); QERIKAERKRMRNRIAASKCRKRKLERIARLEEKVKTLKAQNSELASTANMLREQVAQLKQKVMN; partner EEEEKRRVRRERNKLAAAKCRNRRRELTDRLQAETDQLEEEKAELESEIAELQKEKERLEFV
| Change | binding fitness |
| --- | --- |
| V56N | -0.925 natural log |
| A29Q | -0.333 natural log |
| L45S | -1.13 natural log |
| K36T | -0.241 natural log |
| E44S | -0.15 natural log |
| A40L | -0.133 natural log |
| R53M | -0.709 natural log |
| Q55W | -0.629 natural log |
| K36W | -0.388 natural log |
| A57T | -0.156 natural log |
| T37V | -0.11 natural log |
| E54N | -0.13 natural log |
| L31Y | -0.394 natural log |
| A29Y | -0.371 natural log |

Single results of other studies
| Substance | target | test | test system | setting | how to read | quantity | result |
| --- | --- | --- | --- | --- | --- | --- | --- |
| PhoQ, residues 284 288 289 292 302 303 TLSLKA | PhoP, residues 12 14 15 18 19 HEGLL (Escherichia coli, UniProt P23836) | Sort-seq, item: YFP reporter | E. coli | PhoQ-PhoP variant library, together with: 10 µM Mg2+ | reference: high Mg2+ state, higher = stronger signaling | fold induction | 1.18 |

Excerpt of the above (series 2):
| Change | relative binding score [%] |
| --- | --- |
| P37A | 89.3 |
| D153L | 2.31 |
| L169Q | 8.92 |
| A175K | 96.4 |
| E4L | 99.4 |
| E38M | 71.1 |
| D97V | 103 |
| K168A | 92.5 |
| E129F | 100 |
| R88G | 59.2 |
